Measured values gathered from unrelated publications.
Each numbered part is a random draw from the data of one study; scales do not carry over between parts. Changes are numbered by the printed parent chain.

Block 1
Target: RNA binding protein fox-1 homolog 2, RRM domain, GST-SBP tag (RBFOX2, Homo sapiens, UniProt O43251-10, residues 100-194)
Method: RNA Bind-n-Seq
Form: RNA
Sample: in vitro
Concentration: 365 nM
Notes: natural RNA segment, single round, ends assumed
Relative to: no-protein control
Reading: higher = stronger binding
Residues (chain): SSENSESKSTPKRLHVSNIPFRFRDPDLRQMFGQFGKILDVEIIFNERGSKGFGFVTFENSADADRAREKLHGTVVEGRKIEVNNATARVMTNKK
`GGGAGUUCUACAGUCCGACGAUCUAGUAGAUGUUCUACUUUGUUCUGCUGUUCUCUAGAAAGAAUAUUUGGUUUUCCUGUAUAGGAAUGAGAUUAAUUCCUUUCCAGGUAUUUUAUAAUUCUGGGAAGCAAAAUGGAAUUCUCGGGUGCCAA`: “RBNS enrichment (R)” 0.291.
For `GGGAGUUCUACAGUCCGACGAUCCCUCUGCCCCCUGGGUUCAAGCGAUUCUCCUGCCUCAGCCUCCCGAGUAGCUGAGACUACAGGCACCUGCCACCAUACCCAGCUAAGUUAUGUAUUUUUAGUAGAGAUGGUGGAAUUCUCGGGUGCCAA`, “RBNS enrichment (R)” read 0.857.
`GGGAGUUCUACAGUCCGACGAUCACUUUUCUACUUUCAAGAACUAUGUAUCUCUUUUAUCCCACCACAACAUUUAUCUGUAGCUAAGAUAUUUUCUCUUAAUAAUUACCUCCCAAAUGCUUUUAGUGAACCGAUGGAAUUCUCGGGUGCCAA` — result for “RBNS enrichment (R)”: 1.68.
`GGGAGUUCUACAGUCCGACGAUCGAGGGCAUGAGGCUCCACUCAUUGUCUUGUGACUUCCAUCCCUGCUGAAUGGGGCUGCAAGGCCAAGGCUCCUUAGGGGAGAGGUCCUUACCUCUGAUCCACUUAGAGCAUGGAAUUCUCGGGUGCCAA` — result for “RBNS enrichment (R)”: 1.02.

Block 2
Target: Sal-like protein 4, full length isoform B (SALL4, Homo sapiens, UniProt Q9UJQ4-2, residues 1-616)
Method: universal PBM
Form: double-stranded DNA, one strand shown
Sample: in vitro
Concentration: not given
Notes: 8-mer, flanks averaged, mean of replicates
Reading: higher = stronger binding
Residues (chain): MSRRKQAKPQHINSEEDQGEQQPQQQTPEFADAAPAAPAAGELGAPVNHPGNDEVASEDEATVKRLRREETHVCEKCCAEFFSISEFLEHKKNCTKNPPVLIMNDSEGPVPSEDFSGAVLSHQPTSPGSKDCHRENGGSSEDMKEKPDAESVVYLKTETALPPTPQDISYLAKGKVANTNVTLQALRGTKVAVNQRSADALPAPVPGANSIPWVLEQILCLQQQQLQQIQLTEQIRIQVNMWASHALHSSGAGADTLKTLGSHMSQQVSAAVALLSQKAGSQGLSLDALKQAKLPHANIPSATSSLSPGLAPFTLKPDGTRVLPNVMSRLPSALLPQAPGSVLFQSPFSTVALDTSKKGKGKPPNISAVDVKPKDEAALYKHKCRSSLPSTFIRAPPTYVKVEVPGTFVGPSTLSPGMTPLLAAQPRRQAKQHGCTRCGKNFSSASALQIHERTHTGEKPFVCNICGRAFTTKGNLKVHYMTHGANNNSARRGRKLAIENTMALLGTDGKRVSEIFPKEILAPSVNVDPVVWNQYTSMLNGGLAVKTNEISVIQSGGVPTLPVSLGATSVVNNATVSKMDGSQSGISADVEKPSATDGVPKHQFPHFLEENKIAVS
For `AATGTAGA`, the E-score was 0.216.
With `CAGATTCG` the E-score was -0.0736.
With `CTTGGGCC` the E-score was -0.324.
The E-score of `CCGGTTTC` is reported as -0.297.

Other studies, line by line
NFE2L1: NFE2L1, bZIP domain (human)
P1: JUN, bZIP domain (human); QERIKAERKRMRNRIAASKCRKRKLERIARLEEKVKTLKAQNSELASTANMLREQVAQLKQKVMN; partner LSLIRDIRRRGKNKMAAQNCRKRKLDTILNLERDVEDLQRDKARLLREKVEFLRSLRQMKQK
For `P1 E32Q`, the binding fitness was -1.49 natural log (NFE2L1; DHFR protein complementation; yeast; single substitutions, most at no-binding floor; relative to: wild-type JUN-FOS pair, higher = stronger binding).
`PhoQ, residues 284 288 289 292 302 303 QWGLFV` gave a fold induction of 0.986 (PhoP, residues 12 14 15 18 19 FWNTL (Escherichia coli, UniProt P23836); Sort-seq, refers to: YFP reporter; E. coli; PhoQ-PhoP variant library, with: 10 µM Mg2+; relative to: high Mg2+ state, higher = stronger signaling).
`P1 A40F` has a binding fitness of -1.41 natural log (NFE2L1; DHFR protein complementation; yeast; single substitutions, most at no-binding floor; relative to: wild-type JUN-FOS pair, higher = stronger binding).

A few entries again (block 2):
The E-score of `CCGGTTTC` is reported as -0.297.
